Measurements from different studies.
Every numbered part comes from another study and shows a few of its results, in no order. Positions count from the first letter of the parent shown.

Set 1 — target: CCNE2, cyclin fold, Cln2 fusion (human); technique: yeast growth competition, sequencing; matrix: yeast; setting: strong parent motif; relative to: not given; reading: higher = stronger binding
Starting sequence: CDKN1A docking peptide (human); SKACRRLFGPVDS
Substitution | normalised enrichment score
SKACRRLFGIVDS [P10I] | 2.69
SKKCRRLFGPVDS [A3K] | 1.14
SKACRRLFGPGDS [V11G] | 4.32
SKACKRLLGPVDS [R5K F8L] | 0.174
SKALRRLFGPVDS [C4L] | 1.01
SQACRRLFGPVDS [K2Q] | 3.2
SKAYRRLFGPVDS [C4Y] | 0.302
SKACRELFGPVDS [R6E] | 0.751
SKCCRRLFGPVDS [A3C] | 3.48
SKADRRLFGPVDS [C4D] | 0.439
SKACCRLFGPVDS [R5C] | 0.353
SKACRRLFGPVFS [D12F] | 2.21
SKACYRLFGPVDS [R5Y] | -0.0531
SKACRRLPGPVDS [F8P] | 0.167
SKACRRLFGPTDS [V11T] | 4.37
SKACRRLFGPVGS [D12G] | 3.06
SKACRPLFGPVDS [R6P] | -0.0245
SKACRRLFQPVDS [G9Q] | 4.81

Set 2 — technique: RNA Bind-n-Seq; form: RNA; matrix: in vitro; tested at: 200 nM; setting: whole 134-nt RNA, ends assumed; added: 150 mM LiCl; relative to: input library; reading: higher = stronger binding; each molecule: 7-deaza-guanosine replaces G
Target: Fragile X messenger ribonucleoprotein 1, C-terminal low-complexity region (Fmr1, Mus musculus, UniProt P35922)
All sequences stand within: GGGAGUUCUACAGUCCGACGAUC … UGGAAUUCUCGGGUGUCAAGG
Oligonucleotide | log2 enrichment
ACAGGAAGUAAAAACAAAUGGAAAUGCUUCGGAUAGUGGCAGGGGUGGGGGUUGCUAAGGAAAGGGUGGGAUGGGAGUGGGUAAAGAGUU | 1.44
UCAAGUCCUGUGCUACACAUCGUAUGUACCGAAUCGGAAAGGAAAGGAAAGGGGAAAGUAUUAUGUUACGCCGUUCGGAUCUGCACUUCC | -0.787
CACAGACAAUACGCACCCACACAGACACAGAGGGAAGGGGUUGGGAUGGGGACAGGGUGCACAGCAGGGCGGGGUAGGACCCCAGCCCCU | 0.492
UUCCCUGAAGAUGAGAUCCCAGAGAAGGCCUGCAGGCGCCUGCUUGAAGGGAGGCGGCAGAAGAAGACGAAGAAGCAGAAGCGUCUGCUC | -1.3
ACCAUGCAGGUGGGCAUCUUUGAAAAGUGGGGCAAGGGGGGGAUAGGGAGGGGGGUAACACUUUGGGAACAGGUGGUCCCAGGUCGUUUC | 1.41
GAAAUUUGGUUAUGUGGAUUUUGAAUCUGCUGAAGACCUGGAGAAAGCGUUGGAACUCACUGGUUUGAAAGUCUUUGGCAAUGAAAUUAA | -3.98
ACCAUGCAGGUGGGCAUCUUUGGGAAGAGGGGCAAGGGGGGGAUAGGGAGGGGGGUAACACUUUGGGAACAGGUGGUCCCAGGUCGUUUC | 1.3
AAUGCCCACAAGGUCCCUCCCCCAUGGCUGAUUGCCAUGCAGCGAUAUGGACCACCCCCAUCGUAUCCCAACCUGAAAAUCCCUGGGCUG | 1.05
UGGGAGGUGGAUUUUGUUUAUUUUUUUAGCUCAUUUCCAGGGGUGGGAAUUUUUAUUUAAUAUGUGUCAUGAAUAAAGUUGUUUUUGAAA | -0.17
UCAAGUCCUGUGCUACACAUCGUAUGUACCGAAUCGGAAAAAGGUUUUUGGUGGAAAGUAUUAUGUUACGCCGUUCGGAUCUGCACUUCC | -1.35
UCCUGUGCUACACAUCGUAUGUACCGAAUCGGGUUUUUUUGGGUUUUUGGGAAAAAGGGAAAGUAUUAUGUUACGCCGUUCGGAUCUGCA | -0.618

Set 3 — technique: protein binding microarray; form: double-stranded DNA, one strand shown; matrix: in vitro; tested at: not given; relative to: not given; reading: higher = stronger binding
Target: Histone acetyltransferase KAT6A, both winged helices, GST fusion (KAT6A, Homo sapiens, UniProt Q92794, residues 1-181)
Setting: 8-mer, flanks averaged, mean of 2 arrays, mostly near background
Residues (chain): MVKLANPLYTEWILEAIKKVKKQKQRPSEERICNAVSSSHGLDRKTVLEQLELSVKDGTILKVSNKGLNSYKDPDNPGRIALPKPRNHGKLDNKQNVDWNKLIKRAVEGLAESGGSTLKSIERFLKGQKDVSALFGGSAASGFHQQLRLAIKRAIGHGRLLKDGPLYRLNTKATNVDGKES
Oligonucleotide | E-score
ATTGCTAA | -0.0935
ATGGACCG | 0.0689
ATCACGAG | -0.146
ACGGCTCT | 0.217
GACACCTC | 0.00238
ACCCGCCC | 0.194
ACCGGATA | 0.0593
AGAGCGCA | 0.111
ATCGAAAC | 0.137
CAGTAAGA | -0.0678
CTGGTAAA | -0.153
GCTGTCCC | -0.0789
ACAGACCT | 0.0326
ACTGGAGG | -0.123
GGAACCCA | -0.0215
AAGACTAT | -0.143
AATACTGT | -0.123
ATAGCCGC | 0.366

Set 4 — technique: competition protein-binding microarray; form: double-stranded DNA, one strand shown; matrix: in vitro; tested at: 2 µM; added: Pho4 competitor, 0.05 µM; reading: higher = stronger binding; all sequences stand within: … GTCTTGATTCGCTTGACGCTGCTG
Target: Centromere-binding protein 1, full length, His-tagged (CBF1, Saccharomyces cerevisiae, UniProt P17106, residues 1-351)
Sequence of UniProt P17106 (whole entry, looked up): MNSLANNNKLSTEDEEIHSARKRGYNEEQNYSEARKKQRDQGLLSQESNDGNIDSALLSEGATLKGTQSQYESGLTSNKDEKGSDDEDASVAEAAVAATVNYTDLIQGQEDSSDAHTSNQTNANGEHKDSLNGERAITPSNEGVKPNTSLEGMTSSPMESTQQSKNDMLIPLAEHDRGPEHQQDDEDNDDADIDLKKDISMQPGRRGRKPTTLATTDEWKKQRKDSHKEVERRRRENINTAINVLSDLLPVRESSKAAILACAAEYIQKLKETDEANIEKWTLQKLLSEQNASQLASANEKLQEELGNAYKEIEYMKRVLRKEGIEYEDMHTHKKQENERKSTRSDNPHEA
Setting: whole 60-bp probe, lowest competitor level
Oligonucleotide | fluorescence intensity [a.u.]
CTGCCTCTTTTCCAGCATGTGGCAACTGTCCCGACG | 83.8
ATGAAGGTTGGCGACCACGTGGTCGTTGATGCTGCC | 2090
CTTTTAGTAAACCGTCACGTGCAAAAGATTCTTTAG | 7160
TCTAGGGATGAGCTGAACGTGCAAATGATACCAACC | 91.5
TTCTTGGAAAGAACCGTCGTGGGTATAACCAGACAA | 64.9
CGTCAATTAAAATGTTACGTGAGATGGGTTAAATAC | 86.1
TGCGCAACAACTTGCCCGGTGGGTGTATGTCTAGAA | 63.4
TAGGAACTCCTTTGCTGCGTGGCCGATTCCTCTGTA | 69.4
TATCTCGCTCACCATCACGGCCGCCGCCATTCCCGA | 50.5
AAAGCGGTAATTTTTCACGTGCGCTCACATATCTAT | 1070
ACCTTGGCGCATTATCATGTTTGTGATGTCATCCAG | 88.3
AAAGCGGTAATTTGGACAGTGGGTGCAGATATCTAT | 74.8
CTAACGAAGGTTTGCTTTGTGGGTGACAAGCCAAGT | 75
TCGCCGAAACCTTGAAGCATGACAAGAATTTATAGT | 185
TCCCAGTAGATATCGCACGCAAAACTCAAAAGATGG | 64
AGTATGCCCATCAGCCTCGTGACGGATGAGGATCTC | 262
TCCTGAAGGTGTTTGCACGTGTGGACGGCTAGAGAA | 826

Set 5 — technique: RNA Bind-n-Seq; form: RNA; matrix: in vitro; tested at: 365 nM; relative to: no-protein control; reading: higher = stronger binding
Target: RNA binding protein fox-1 homolog 2, RRM domain, GST-SBP tag (RBFOX2, Homo sapiens, UniProt O43251-10, residues 100-194)
Setting: natural RNA segment, single round, ends assumed
All sequences stand within: GGGAGUUCUACAGUCCGACGAUC … UGGAAUUCUCGGGUGCCAA
Residues (chain): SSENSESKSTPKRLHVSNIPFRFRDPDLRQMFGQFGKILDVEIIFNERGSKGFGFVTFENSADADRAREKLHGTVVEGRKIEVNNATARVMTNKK
Oligonucleotide | RBNS enrichment (R)
GACAUGGUGUUUGCCCAUAUCACUUCCAUUUUGUAUACACUCUGGAUUUGUGUAGGCUGUAUUCCAGUUGGCUUUUUAGUAAUAGAAAUCCCUCAUAUGAUGUAUCAGAU | 0.274
AGCUGGACCAUCGUCCCUGCUUCUCUUAUGAUCGCCCCACCUCAUUUCCAUUUCAGUCUGGGGACCCCAUUUCUCCCUCCUUUCCAACUUCCUUCCUUUCUUGUCCUGUU | 0.921
UCUCCAGUAUACUACAGUGGGAAUCACUGAUCUAGUUAACGGCAGCACUCUUGGAUUAAUUCAAUUGUUAUUUCUACUCUUUAACAACAGAAUAAGCCAGAUCCUUGACU | 0.267
GUCAUGAGCAUUCAGAUUGCUGAAAAAAAUCUCAGAAUGGUAGUGUAUUUUUGUAUAUUGUAUUUAUAUAUAAAGAAAGAAAUGUCUACUUAUGCAUGCUAAAUUAUUAU | 17.5
CAUGGUUUAUUUAUGUUGUAGCAAAGUUGGCUCUACAUAAACAUUGUUCUUAUUUUAAAAUUAACACUAUGUGUUCAGUUUUCUUGUGGGCUUCUGAAAGUUGCCAUCUU | 0.425
AGCAGGGAUGUGGCAGAGAGAUCUGUGUGGAUCUGGCUUCCUGCUGCUGGGGCCUGGCUGGGCCCAAAGCUCCAAGCCUCACUGCCUUCCUGGGGUCCUAAUUAACUCGG | 0.294
AAAUGUAGAUGCUAUGCAUUUUGAAAAUAAUCUGCAUCAGUUAGAACUGCAGAAGUUUUUUUAAUGCCACUUUAACACUAAUGCACUGACAGAUUCUAAAUAUUUUGUGA | 1.19
GCACUCAGACAUGACAUUUCAAUUCAUCUCUGCUAAUGAAAAGGGUUCUUUCUCUUGGGGGAAAUGUGUGUGUCAGUUCUGUCAGCUGCAAGUUCUUGUAUAAUGAAGUC | 1.15
ACUGUCUGUCUCUCUGGUUUUCUUUUGCUGCUUCUUCCCUUCUGGUUUCUGGUAGCAGGCCUCCAUUGAACUGUUGUAAAAUACAAGAAGUGUGGUCAGUAAGGAGAGUU | 0.186
AUCCUUAAUACUGGGAACAGAAUACAACCCAUAUAAAUCAGAUGCAGGUGGUAGUCACAUCACCAGAGUGAUCAGUAUAAAUUUUCUUGGUGUAUCCUUUUCCUUUCAAC | 0.472
GAAUAAUGAUGUACCAAUAAGUGGAGAUUCCUCCUUAUGAUGUAUGCUAGGUUAUGGAAGAUGUAAAAUAUUCAACUUUUUCCUCCUUUUUUUGGACUUUGUAUUUUACU | 0.521
AAUUUCAACUUUUCCUUUCAUACGUCUUUAUUACCCAAGUCUUCUCCCGUCCAUUCCAGUCAAAUCUGGGCUCACUCACCCCAGCGAGCUCUCAAAUCCCUCUCCAACUG | 1.2
